Experimental data collected from several papers.
Lines come from different studies, so protocols differ. Values joined by “and” are separate records of one study, mostly repeats; a detail may differ. ± marks the error that the study gave. ≈ marks a conversion by molar mass, not a printed value.

S=C=NCCc1ccccc1  maximum germination stimulation (Phelipanche ramosa; seed germination, stimulant; seeds; 1 µM; relative to: (±)-GR24): 102%
O=C(NNc1ccc(F)c(F)c1)c1nnc(C23CC4CC(CC(C4)C2)C3)o1  inhibition (Botryosphaeria dothidea; fungal growth, inhibitor; 50 µg/mL): 100%
N#Cc1cc(-n2sc3ccccc3c2=O)ccc1F  inhibition (HIV-1; viral replication; 3 µM): > 60%
COc1c([N+](=O)[O-])oc2ccc3ccccc3c12  MIC90 (Mycobacterium marinum; REMA; ATCC BAA-535): 2 µg/mL (≈ 8.22 µM)
Cl.N=C(CC(O)c1cc2c(F)cc(F)cc2c2cc(C(F)(F)F)ccc12)Nc1ccc(Br)cc1 (stereo not shown)  cure rate (Plasmodium berghei; Peters 4-day test; ANKA, mouse; oral, 10 mg/kg): 33%
CC1=CC(=O)c2c(O)cccc2C1=O  fluorescein ingestion (Drosophila melanogaster; fluorescence; liquid food, 40 µg/mL, first instar larvae; relative to: solvent): -13.8%
C=CC[C@@H]1c2ccc(OC)c(OC)c2CN2CCc3cc4c(cc3[C@H]12)OCO4  relative wound size (Staphylococcus aureus; P2rx7 A312V/A312V mice, skin wound infection; dose not given, day 1; relative to: day 0): 0.98 and 0.86 and 1 and 1.49
Nc1ncnc2c1ncn2[C@@H]1O[C@@H]2COP(=O)(O)O[C@H]3[C@@H](O)[C@H](n4cnc5c(=O)[nH]cnc54)O[C@@H]3COP(=O)(O)O[C@H]2[C@H]1O  fold enrichment (Zika virus; RNA sequencing, item: communication, cell-cell, R-HSA-1500931; HFF-1 cells; concentration not given, downregulated pathway; relative to: ZIKV-infected untreated cells): 5.05
Cc1ncc([N+](=O)[O-])n1CCO  antibacterial activity (Gram-negative bacteria; concentration not given): inactive
Cl.N/C(CC(O)c1cc2c(F)cc(F)cc2c2cc(C(F)(F)F)ccc12)=N\c1ccc(F)cc1 (stereo not shown)  parasitemia reduction (Plasmodium berghei; Peters suppressive test; ANKA, infected mice; oral, 4 x 10 mg/kg, day 4; relative to: untreated control): 99.9%
CC[C@H](C)[C@H]1O[C@]2(CC[C@@H]1C)C[C@@H]1C[C@@H](C/C=C(\C)[C@@H](O[C@H]3C[C@H](OC)[C@@H](O[C@H]4C[C@H](OC)[C@@H](O)[C@H](C)O4)[C@H](C)O3)[C@@H](C)/C=C/C=C3\CO[C@@H]4[C@H](O)C(C)=C[C@@H](C(=O)O1)[C@]34O)O2  motility (Brugia malayi; adult male worms; 3 µM, 24 h): 92 ± 7.2%
COC(=O)[C@@H](N)COP1(=O)CO[C@@H](Cn2cnc3c(N)ncnc32)CO1 (stereo partly shown)  IC50 (human cytomegalovirus; viral replication): 0.5 µM
C[C@@H]1CC[C@H]2[C@@H](C)C(=O)O[C@@H]3O[C@@]4(C)CC[C@@H]1[C@]32OO4  parasitemia reduction (Plasmodium berghei; Peters suppressive test; ANKA, infected mice; oral, 4 x 30 mg/kg, day 4; relative to: untreated control): 99%
Cn1cc(NC(=O)c2cc(NC(=O)CN=C(N)N)cn2C)cc1C(=O)NCCC(=N)N  cell length (Bacillus subtilis; bacterial cytological profiling; ATCC 6633; concentration not given): 3.07 µm and 3.19 µm and 3.01 µm
Nc1nc(O)c2ncn(COC(CO)CO)c2n1  EC50 (human cytomegalovirus; viral cytopathic effect; HEL, AD-169): 4.33 µM
O=[N+]([O-])c1cc2c(ccc3c2ccc2cc([N+](=O)[O-])oc23)o1  MIC90 (Mycobacterium marinum; REMA; ATCC BAA-535): 0.0625 µg/mL (≈ 0.21 µM)
Cc1c2c(nn1C)CSCc1cc(n(C)n1)CSc1cc(c3ccccc3c1)OCCCc1c(C(=O)O)n(C)c3c-2c(Cl)ccc13  fold change (Staphylococcus aureus; label-free quantitative proteomics, item: SAOUHSC_01835 protein; SA113; concentration not given; relative to: untreated control): 7.67
CS(=O)(=O)OCCN(CCBr)c1c(C(=O)NCCO)cc([N+](=O)[O-])cc1[N+](=O)[O-]  IC50 (Homo sapiens; cell viability, resazurin or CellTiter-Glo; sample C BCP-ALL PDX cells, ex vivo): 6.82 µM
CO/N=C(\C(=O)N[C@@H]1C(=O)N2C(C(=O)O)=C(CSC(=O)c3ccco3)CS[C@H]12)c1csc(N)n1  MBC (Staphylococcus aureus; CAAS-2019-CAAS-2019-17 clinical blaZ-resistant isolate, 25% plasma): 16 µg/mL
CNC(=O)c1cc(Cl)cc(C)c1NC(=O)c1cc(Br)nn1-c1ncccc1Cl  larval survival (Plutella xylostella; Raphanus sativus field; 25 ppm, 72 h, 5% water-dispersible granule): 8.6%
C[C@H]1COCCN1c1nc(NCc2cccnc2C(F)(F)F)c2cccnc2n1  mice with adult worms (Brugia malayi; SCID mouse; x14d dosing, 6 weeks post-treatment): 80%
CS(=O)(=O)CCCn1c(Cn2c(=O)n(CC(F)(F)F)c3ccncc32)cc2cc(Cl)ccc21  LS mean viral load change (respiratory syncytial virus; RT-qPCR; hospitalized infants 1-24 months, nasal swab; oral, 8 mg/kg daily, day 28, cohort 6-24 months; relative to: baseline): -4.38 log10 copies/mL
O=C(NNc1cc(F)ccc1F)c1nnc(C23CC4CC(CC(C4)C2)C3)o1  inhibition (Botryosphaeria dothidea; fungal growth, inhibitor; 50 µg/mL): 100%
Cn1c(=O)ccc2ccc(F)c(CCNC[C@H]3CN(c4cnc5c(n4)NC(=O)CO5)C(=O)O3)c21  MIC90 (Prevotella sp.): < 0.015 µg/mL
CC[C@H](C)[C@H](NC(=O)[C@H](C)NC(=O)[C@H](CCCCN)NC(=O)[C@H](CC(C)C)NC(=O)[C@H](C)NC(=O)[C@@H](NC(=O)[C@H](Cc1c[nH]cn1)NC(=O)[C@H](CC(C)C)NC(=O)[C@@H](NC(=O)[C@@H](NC(=O)[C@H](CCCCN)NC(=O)[C@H](C)NC(=O)[C@H](C)NC(=O)[C@H](CO)NC(=O)[C@H](CCCCN)NC(=O)[C@H](Cc1ccccc1)NC(=O)[C@@H](NC(=O)[C@H](CCCCN)NC(=O)[C@H](CC(C)C)NC(=O)[C@H](Cc1ccccc1)NC(=O)[C@H](CO)NC(=O)[C@H](CCCCN)NC(=O)[C@H](Cc1c[nH]c2ccccc12)NC(=O)[C@H](CCCCN)NC(C)=O)[C@@H](C)O)[C@@H](C)O)C(C)C)[C@@H](C)O)C(=O)N[C@@H](CO)C(=O)N[C@@H](CO)C(N)=O  MIC50 (Klebsiella pneumoniae; ATCC 1705): 16 µg/mL (≈ 5.45 µM)
Cl.N=C(CC(O)c1cc2c(F)cc(F)cc2c2cc(C(F)(F)F)ccc12)Nc1ccc(F)c(F)c1 (stereo not shown)  parasitemia reduction (Plasmodium berghei; Peters suppressive test; ANKA, infected mice; oral, 4 x 3 mg/kg, day 4; relative to: untreated control): 99.8%
CCCCCC[C@H]1C(=O)O[C@H](C)[C@H](NC(=O)c2cccc(NC=O)c2O)C(=O)O[C@@H](C)[C@@H]1OC(=O)CC(C)C  viral protein level (herpes simplex virus 1; Western blot, item: ICP4, VP16, gD; concentration not given): decreased
O=[N+]([O-])c1cc2cc3ccc4oc([N+](=O)[O-])cc4c3cc2o1  MIC90 (Mycobacterium marinum; REMA; ATCC BAA-535): 0.03 µg/mL (≈ 0.101 µM)
CC[C@H](C)[C@H](NC(=O)[C@H](CC(N)=O)NC(=O)[C@H](Cc1ccccc1)NC(=O)[C@H](CCCNC(=N)N)NC(=O)[C@H](CCCNC(=N)N)NC(=O)[C@@H](N)CCCCN)C(=O)N[C@@H](CCCCN)C(=O)N[C@@H](CC(C)C)C(=O)N[C@@H](Cc1c[nH]c2ccccc12)C(=O)N[C@@H](CCCCN)C(=O)N[C@H](C(=O)N[C@@H](Cc1ccccc1)C(=O)O)[C@@H](C)O  MBC (Micrococcus luteus; NCTC 2665): 32 µg/mL (≈ 19.5 µM)
COC(=O)N[C@H](C(=O)N1CCC[C@H]1c1ncc(-c2ccc(-c3ccc(-c4cnc([C@@H]5CCCN5C(=O)[C@@H](NC(=O)OC)C(C)C)[nH]4)cc3)cc2)[nH]1)C(C)C  combination index (Hepatitis C virus; replicon cells; 75% effect level, together with: IFN-alpha, ratio 1:1): 0.63
CCCCc1ccc(CNc2nc(N(C)C)nc(N(C)C)c2/N=N/c2ccc(Cl)cc2)cc1  mortality (Ostrinia furnacalis; leaf dipping; 3.13 mg/L): 26.7%
